Published values from different studies.
Each line is one published result; not all experiments were run side by side. Numbers after ± are the reported error.

SMILES | cell line | assay | setting | EC50
CCOc1nc(-c2cccc(O)c2)cc(-c2cc3ccccc3nc2N2CCOCC2)c1C#N | WI-38 | cell viability, MTT | 72 h | 0.038 ± 0.0003 µM
CCOC(=O)c1ccc(NC2CCCCC2)c(N)c1 | PANC-1 | protection from ferroptosis, PrestoBlue | 24 h, with: erastin 10 µM | 0.07 µM
C[C@]12CCCN1CC1=NNC(=O)c3cc(F)cc4[nH]c2c1c34 | KATO III |  | with: temozolomide | > 10 µM
O=C1CCC(=O)N1Cc1cc2nccc(-c3cc(Cl)cc4c3N([C@@H]3CNC5(CCC5)C3)CCC4)c2s1 | MM1.S | protein induction, item: p53 | adjusted for plasma unbound fraction | 0.265 µg/mL
CCn1cc(-c2cc(Cn3ccoc3=N)cc3c2CCN([C@@H](C)c2cc(OC)ccn2)C3=O)c(C(F)(F)F)n1 | ML1 | cell growth, inhibitor | 120 h | 25.5 µM
COc1ccc2nc(N3CCOCC3)c(-c3cc(-c4cccc(O)c4)nc4[nH]nc(N)c34)cc2c1 | WI-38 | cell viability, MTT | 72 h | 0.149 ± 0.007 µM
OCCN(CCO)c1nc(N2CCCCC2)c2nc(N(CCO)CCO)nc(N3CCCCC3)c2n1 | Jurkat T cells, wild type | [3H]-thymidine incorporation, inhibitor | 3 h | 0.0687 µM
C=C(NC(=O)C(=C)NC(=O)c1csc(C2=N[C@@H]3c4csc(n4)[C@H]4NC(=O)c5csc(n5)[C@H]([C@](C)(O)[C@@H](C)O)NC(=O)[C@H]5CSC(=N5)/C(=C/C)NC(=O)[C@H]([C@@H](C)O)NC(=O)c5csc(n5)[C@]3(CC2)NC(=O)[C@H](C)NC(=O)C(=C)NC(=O)[C@H](C)NC(=O)[C@H]([C@@H](C)CC)N[C@@H]2C=Cc3c([C@H](C)O)cc(nc3[C@H]2O)C(=O)O[C@@H]4C)n1)C(N)=O | SCC-90 | cell viability |  | 1.1 µM
Nc1n[nH]c2nc(-c3cccc(O)c3)cc(-c3cc4cc(Cl)ccc4nc3N3CCOCC3)c12 | WI-38 | cell viability, MTT | 72 h | 0.133 ± 0.003 µM
COc1cnc2cccc(N3CCc4c(cc(Cn5ccnc5C)cc4-c4cn(C)nc4C(F)(F)F)C3=O)c2c1 | RPMI-7951 | cell growth, inhibitor | 120 h | > 30 µM
CCCNC(=O)[C@H]1O[C@@H]1C(=O)N[C@H](C(=O)N1CCC[C@H]1C(=O)OC)[C@@H](C)CC | MDA-MB-231 | cell viability, MTT | 72 h, dark | 21 ± 5.1 µM
CCn1cc(-c2cc(Cn3ccnc3)cc3c2CCN([C@H](c2cc(OC)ccn2)C2CC2)C3=O)c(C(F)(F)F)n1 | JHOC5 | cell growth | 120 h | 5.56 µM
CCOc1nc(-c2cccc(O)c2)cc(-c2cc3cc(OC)ccc3nc2N2CCOCC2)c1C#N | WI-38 | cell viability, MTT | 72 h | 0.085 ± 0.001 µM

A few entries again:
SMILES | cell line | assay | setting | EC50
COc1ccc2nc(N3CCOCC3)c(-c3cc(-c4cccc(O)c4)nc4[nH]nc(N)c34)cc2c1 | WI-38 | cell viability, MTT | 72 h | 0.149 ± 0.007 µM
